Measurements of several laboratories.
Protocols differ between the studies behind these lines. Values joined by “and” are separate records of one study, mostly repeats; a detail may differ. Numbers after ± are the reported error.

For `CC(C)(C(=O)N1CCOc2c(C#N)cncc2C1)C(F)F`, “subjects with TEAE” read 0% (item: vessel puncture site haemorrhage; human, both sexes; oral, 15 mg twice daily, 14 days, multiple ascending dose).
For `CC(C)(CO)c1cc2cc(NC(=O)C3(c4ccc5c(c4)OC(F)(F)O5)CC3)c(F)cc2n1C[C@@H](O)CO`, the dose-adjusted solubility was 0.00238 mL⁻¹ (FaSSIF; literature solubility over dose).
`CC(=O)N[C@@H](CC(N)=O)C(=O)N[C@@H](CC(N)=O)C(=O)N[C@@H](CC(C)C)C(=O)N[C@H]1CSSC[C@@H](C(=O)N[C@H](C(N)=O)[C@@H](C)O)NC(=O)[C@H](CCCNC(=N)N)NC(=O)[C@H](Cc2c[nH]cn2)NC(=O)[C@H](Cc2cccc3ccccc23)NC(=O)CNC(=O)[C@H](Cc2c[nH]c3ccccc23)NC(=O)[C@H](CC(=O)O)NC(=O)[C@H](CCC(N)=O)NC(=O)[C@H](Cc2cccc3ccccc23)NC(=O)[C@H](C(C)C)NC1=O` gave a retention factor of 5.899 ± 0.004 (isocratic RP-HPLC, C18; 32% acetonitrile, phosphate pH 7.4, 1% TFA; 25 °C).
Under “adverse event incidence”, `FC(F)(F)c1ccc(CNc2ccc(Cc3c[nH]c4ncc(Cl)cc34)cn2)cn1` is recorded as 13% (item: Pruritus; patients with advanced solid tumours; oral, dose not given, grade 1 and 2, possibly related to drug).
The half-life of `NCc1cc2c(cc1F)C(=O)N(C1CCC(=O)NC1=O)C2` (centres unmarked) is reported as 0.128 h (male Cynomolgus monkey, whole blood; without inhibitor).
For `C=CCN1CC(=O)N2[C@@H](Cc3ccc(O)cc3F)C(=O)N(Cc3cccc(N4CC(N5CCN(CC)CC5)C4)n3)C[C@@H]2N1C(=O)NCc1ccccc1`, “treatment-related decreased appetite” read 0% (advanced solid tumour patients; oral, 30 mg twice daily, any grade, dose-escalation).
`CCN1CCN(Cc2ccc(NC(=O)c3ccc(C)c(NC(=O)c4cncc(-c5cccs5)c4)c3)cc2C(F)(F)F)CC1` — result for “mean residence time”: 3.39 h (C57BL/6 mice, epithelial lining fluid; intraperitoneal, 30 mg/kg).
Under “heart rate change”, `CNCCOC12CC3(C)CC(C)(CC(Cn4ncc(-c5ccc(N6CCc7cccc(C(=O)Nc8nc9ccccc9s8)c7C6)nc5C(=O)O)c4C)(C3)C1)C2` is recorded as 5% (beagle dog, male, anaesthetised; intravenous bolus, 0.03 mg/kg, 10 min; reference: baseline).
Under “patients with nervous system disorder AE”, `CNC(=O)c1cc(Oc2ccc(NC(=O)Nc3cc(C(C)(C)C)nn3-c3ccc4ncccc4c3)c(F)c2)ccn1` is recorded as 36% (item: worst grade 1; human; oral, dose not given, cycles 1 and 2, Medium AUC(0-4 h) subgroup).
`C1CCCC1.C1CCCC1.[Cl][W][Cl]` — result for “oxidation peak potential”: 0.47 V (cyclic voltammetry; acetonitrile; reference: Ag/AgCl).
`COc1cc(Nc2ncc3c(n2)-c2ccc(Cl)cc2C(c2c(F)cccc2OC)=NC3)ccc1C(=O)O` — result for “decreased white cell count incidence”: 29% (patients; oral, dose not given, grade 2, any attribution, with: pembrolizumab).
`C[C@H]1CN(c2n[nH]c3nc(N[C@H]4CC[C@H](NS(=O)(=O)CCC(F)(F)F)CC4)ncc23)CCO1` — result for “alkaline phosphatase activity”: 1.32 fold (male Han Wistar rat; oral, 1000 mg/kg/day, 7 days; reference: vehicle).
Under “patients with adverse event”, `CNC(=O)c1ccc(-c2cnc3ncc(Cc4ccc5ncccc5c4)n3n2)cc1F` is recorded as 11% (item: Headache, all grades; gastric cancer patients; oral, 600 mg twice daily, expansion cohort, any causality).
For `C[C@@H](N)C1CCN(S(=O)(=O)c2cccc3cnccc23)CC1`, the TEAE incidence was 0% (item: Hypotension; healthy volunteers; 150 mg, fed).
For `O=C(O)CSc1nnc(Br)n1-c1ccc(C2CC2)c2ccccc12`, the body weight was 24.4 g and 26.1 g and 26.5 g and 24.9 g and 27.4 g and 23.5 g (KM mouse, chronic hyperuricaemia model; dose not given, day 1).
For `CC(C)[C@@H](CN1CC[C@@](C)(c2cccc(O)c2)[C@@H](C)C1)NC(=O)[C@H]1Cc2ccc(O)cc2CN1`, the dose-normalised AUC(0-t) was 322 ± 103 ng·h/mL (rat, Sprague-Dawley, plasma; ip, 5 to 10 mg/kg).
With `COc1cc(C)c(-c2c(C)cc(OC)c3c(=O)cc(-c4ccc(N(C)C)cc4)oc23)c2oc(-c3ccc(N(C)C)cc3)cc(=O)c12` the purity was 95.8% (reverse phase HPLC; DMSO; 25 mg/mL, 24 h, 22 °C).
The effective permeability of `O=C(Nc1cccc(Nc2ncc(Br)c(NCCc3c[nH]cn3)n2)c1)N1CCCC1` is reported as 0.139 ×10⁻⁶ cm/s (PAMPA; PBS; 5 h, pH 7.4).
For `CCn1cc(C(=O)N2CCOCC2)c(=O)c2cc(NC3Cc4ccccc4C3)cnc21`, the AUC(0-12h) was 23100 ng·h/mL (human male, fed, plasma; oral, 900 mg twice daily, day 1, tablet, arithmetic mean).
`N#C[C@@]1(c2ccc3c(N)ncnn23)O[C@H](CO)[C@@H](O)[C@H]1O` has a fraction unbound of 0.915 (mouse plasma; 10 µM).
`CCc1cc(C(=O)NC)c2nccc(N3CCc4c(cc(Cn5ccnc5)cc4-c4cn(C)nc4C(F)(F)F)C3=O)c2c1`: “serum TBIL level” 2.4 ± 0.35 µmol/L (Sprague Dawley rats; oral, 100 mg/kg once daily, 7 days).
Under “participants with TEAE dry throat”, `CCCCCCOC(=O)NC(=N)c1ccc(NCc2nc3cc(C(=O)N(CCC(=O)OCC)c4ccccn4)ccc3n2C)cc1` is recorded as 4.2% (human; oral, 75 mg, compound alone).
`Oc1ccc(/C=C/c2cc(O)cc(O)c2)cc1` has an alkaline phosphatase of 287 IU/L and 342 IU/L and 416 IU/L (rat, azoxymethane-injected, blood at sacrifice; 10 mg/kg).
For `CCN1/C(=C/C(C)=O)Sc2ccc(F)cc21`, “QTc interval (Bazett)” read 326 ± 8 ms (cynomolgus monkey; oral, 30 mg/kg, 2 h post-dose).
`C[C@@H](Nc1cc(F)cc(F)c1)c1cc(C(=O)N(C)C)cc2c(=O)cc(N3CCOCC3)oc12` — result for “related serious adverse events”: 0% (item: Hypokalemia; advanced solid tumour patients; oral, dose not given, dose expansion).
Under “body weight loss”, `COc1cc2c3c(n(CCCN4CCOCC4)c(=O)c2cc1OC)-c1cc2c(cc1C3=O)OCO2` is recorded as 13 to 20% (rat; intravenous, 48-60 mg/m^2, 5 days once daily; reference: control).
`CN1CCCC1CCNS(=O)(=O)c1ccc2c(c1)CN(CC1CCCCC1)CC2` (centres unmarked) has a Tlast of 24 h (mouse, brain; oral, 10 mg/kg).
`CN[C@@H](C)C(=O)N[C@H]1CN(S(=O)(=O)c2cccc(S(=O)(=O)N3CC[C@H]4CC[C@@H](C(=O)NC(c5ccccc5)c5ccccc5)N4C(=O)[C@@H](NC(=O)[C@H](C)NC)C3)c2)CC[C@H]2CC[C@@H](C(=O)NC(c3ccccc3)c3ccccc3)N2C1=O` has a median Tmax of 30 min (LC-MS/MS, noncompartmental; human, plasma; 20 mg, cycle 1 day 1).
For `CC(C)C[C@H](NC(=O)CNC(=O)c1cc(Cl)ccc1Cl)B(O)O`, “treatment-emergent adverse events” read 6% (item: Vomiting; human newly diagnosed multiple myeloma; oral, dose not given, maintenance, grade 3, onset cycle 17 or later).
`CCc1nc(C(N)=O)c(Nc2ccc(N3CCC(N4CCN(C)CC4)CC3)c(OC)c2)nc1NC1CCOCC1` gave an AUC(0-24) of 3620 ng·h/mL (Japanese patients, plasma; oral, 200 mg, cycle 0 day -2, single dose, median).
The dose-normalised AUC(0-last) of `Cc1cc(C(=O)NC(C)(C)COc2cccc3c2C(N)=NS(=O)(=O)N3)cc(C)n1` is reported as 0.97 ng·h/mL/mg/kg (Sprague-Dawley rat, male, plasma; oral, 100 mg/kg).
`CNCc1ccc(-c2[nH]c3cc(F)cc4c3c2CCNC4=O)cc1` gave a neutropenia incidence of 0% (human patients; oral, 240 mg twice daily, all grades).
The ECG observations of `CCOc1c([C@H](C)n2nc(C)c3c(N)ncnc32)cc(Cl)c(F)c1[C@@H]1CNC(=O)C1` is reported as 0% (item: QTcF change above 60 ms; previously treated B-cell malignancy; oral, 45 mg once daily, overall population; reference: baseline).
Under “TEAE decreased neutrophil”, `O=C(O)CCC(=O)O.[2H]C([2H])([2H])Oc1cc(C)c2[nH]ccc2c1CN1CC[C@@H](C2CC2)C[C@H]1c1ccc(C(=O)O)cc1` is recorded as 0% (healthy Chinese subjects; 400 mg, single ascending dose).
`CN1C[C@H](COc2nccc3c(NCc4ccco4)cc(Cl)nc23)OC1=O`: “adverse necropsy findings” “negative” (rat Crl:CD(SD) male; oral, 300 mg/kg, single dose).
`O=C(N[C@H](Cc1c[nH]c2ccccc12)C(=O)Nc1ccncc1)c1ccc(-c2cc(C(F)(F)F)ccc2F)cc1F` has a concentration of 650 nM (Swiss Webster mouse, female, fat; oral, 50 mg/kg, 8 h, 20% HPβCD vehicle).
Under “systemic inflammatory response syndrome incidence”, `NC1(C(=O)N[C@@H](CCO)c2ccc(Cl)cc2)CCN(c2nc[nH]c3nccc2-3)CC1` is recorded as 0% (human mCRPC patients; oral, twice daily, 4/7 days, grade 3/4, treatment-related, with: enzalutamide 160 mg daily).
`N#Cc1ccc2c(c1)[C@H]1CCCN(C(=O)c3ccc4[nH]cnc4c3)[C@H]1C2` has a DHEA-S level of 7.9 µmol/L (human males; 160 mg, end of trial).
With `CCCC[C@@H]1NC(=O)[C@H]([C@@H](C)CC)NC(=O)[C@@](C)(NC(=O)CNC(=O)[C@@H](NC(=O)[C@H](Cc2ccccc2)NC(=O)[C@H](C)NC(=O)[C@H](CCCCN)NC(=O)CNC(=O)[C@H](Cc2ccccc2)NC(=O)[C@H](CCCCN)NC(=O)[C@H](CCCCN)NC(=O)[C@H](C)NC(=O)[C@H](CO)NC(=O)[C@H](Cc2c[nH]cn2)NC(=O)[C@H](CC(C)C)NC(=O)[C@H](Cc2ccccc2)NC(=O)[C@H](CCCCN)NC(=O)CNC(=O)[C@@H](NC(=O)CN)[C@@H](C)CC)C(C)C)CCCC=CCCC[C@@](C)(C(N)=O)NC(=O)[C@H](CC(N)=O)NC1=O` the retention time was 13.1 min (HPLC C18 column).
Under “participants with TEAE”, `Cc1ccc(Sc2ccccc2N2CCNCC2)c(C)c1` is recorded as 0% (item: abdominal pain; healthy adult men; oral, 5 mg daily, 12 days).
`NC(=O)N1c2ccccc2C=Cc2ccccc21`: “adverse events incidence” 67% (item: total drug-related adverse events; human male; oral, dose not given, AEs, treatment-related, on drug, CTCAE).
`COc1cccc(OC)c1-c1cc(C(=O)NC2(C(=O)O)C3CC4CC(C3)CC2C4)nn1-c1ccc(C(=O)N(C)CCCN(C)CCCN(C)C(=O)CN2CCN(CC(=O)[O-])CCN(CC(=O)[O-])CCN(CC(=O)[O-])CC2)cc1C(C)C.[177Lu+3]` (centres unmarked) has a tissue uptake of 0.14 %ID/g (mouse, HT-29 xenograft, heart; 168 h post injection).
The half-life of `C[C@@H](Oc1ccc(S(C)(=O)=O)cc1C(=O)N1C[C@@H]2C[C@]2(c2cc(C(F)(F)F)on2)C1)C(F)(F)F` is reported as 43.7 h (young humans, plasma; oral, 10 mg once daily, single dose, geometric mean).
For `Cc1cc(-c2nccc3c2ccn3CC(=O)Nc2ccc(-c3cnccn3)cn2)ccn1`, “subjects with grade 1 TEAE” read 16.7% (human; SAD part, single 40 mg dose).
For `O=C(Nc1nc2cccc(-c3ccc(CN4CCS(=O)(=O)CC4)cc3)n2n1)C1CC1`, “treatment-emergent adverse events” read 5% (item: gastrointestinal pain; human rheumatoid arthritis patients; oral, 300 mg once daily, 4 weeks, regardless of relatedness).
`CC[C@H](C)[C@H](NC(=O)[C@H](Cc1ccccc1)NC(=O)[C@H](CCC(=O)O)NC(=O)[C@H](CCCCNC(=O)COCCOCCNC(=O)COCCOCCNC(=O)CC[C@H](NC(=O)CCCCCCCCCCCCCCCCC(=O)O)C(=O)O)NC(=O)[C@H](C)NC(=O)[C@H](C)NC(=O)[C@H](CCC(N)=O)NC(=O)CNC(=O)[C@H](CCC(=O)O)NC(=O)[C@H](CC(C)C)NC(=O)[C@H](Cc1ccc(O)cc1)NC(=O)[C@H](CO)NC(=O)[C@H](CO)NC(=O)[C@@H](NC(=O)[C@H](CC(=O)O)NC(=O)[C@H](CO)NC(=O)[C@@H](NC(=O)[C@H](Cc1ccccc1)NC(=O)[C@@H](NC(=O)CNC(=O)[C@H](CCC(=O)O)NC(=O)C(C)(C)NC(=O)[C@@H](N)Cc1cnc[nH]1)[C@@H](C)O)[C@@H](C)O)C(C)C)C(=O)N[C@@H](C)C(=O)N[C@@H](Cc1c[nH]c2ccccc12)C(=O)N[C@@H](CC(C)C)C(=O)N[C@H](C(=O)N[C@@H](CCCNC(=N)N)C(=O)NCC(=O)N[C@@H](CCCNC(=N)N)C(=O)NCC(=O)O)C(C)C` — result for “change in QT interval”: -16.5 ms (healthy human; subcutaneous, 1.5 mg once weekly, 0 h, steady state; reference: placebo, baseline).
The median concentration of `CCCCOc1ccc([C@H]2CC[C@H](CCC)CC2)c(F)c1F` is reported as 5.19 ng/mL (human mother-newborn pairs, maternal serum; female fetuses).
For `NC[C@@]1(CC(=O)O)[C@@H]2CC[C@H]3C[C@@H]2[C@@H]1C3`, the AUC(0-inf) increase was 14.6% (human, mild renal impairment, plasma; dose not given; reference: normal renal function).
With `Cl.[2H]C([2H])([2H])CC(=O)c1cnc(NC(=O)C2CC2)cc1Nc1cccc(-c2ncn(C([2H])([2H])[2H])n2)c1OC` the Cmax was 125 ng/mL (geometric mean; human; oral, 20 mg twice daily, day 1, fed, liquid, multiple dose).
For `COc1cc2nccc(Oc3ccc(NC(=O)c4cc5c(n(-c6ccccc6)c4=O)CCCC5=O)nc3)c2cc1OC`, “patients, with TEAEs, drug-related grade ≥3” read 10% (human, relapsed/refractory AML; oral, dose not given, CTCAE, all doses combined).
